Measurements collected from several papers.
Each numbered part is a random draw from the data of one study; scales do not carry over between parts.

Study 1 — method: RNA Bind-n-Seq; molecule type: RNA; matrix: in vitro; concentration: 1 µM; notes: whole 134-nt RNA, ends assumed; together with: 150 mM KCl; relative to: input library; reading: higher = stronger binding
Target: Ras GTPase-activating protein-binding protein 1, RRM domain (G3BP1, Homo sapiens, UniProt Q13283)
Sequence of UniProt Q13283 (whole entry, looked up): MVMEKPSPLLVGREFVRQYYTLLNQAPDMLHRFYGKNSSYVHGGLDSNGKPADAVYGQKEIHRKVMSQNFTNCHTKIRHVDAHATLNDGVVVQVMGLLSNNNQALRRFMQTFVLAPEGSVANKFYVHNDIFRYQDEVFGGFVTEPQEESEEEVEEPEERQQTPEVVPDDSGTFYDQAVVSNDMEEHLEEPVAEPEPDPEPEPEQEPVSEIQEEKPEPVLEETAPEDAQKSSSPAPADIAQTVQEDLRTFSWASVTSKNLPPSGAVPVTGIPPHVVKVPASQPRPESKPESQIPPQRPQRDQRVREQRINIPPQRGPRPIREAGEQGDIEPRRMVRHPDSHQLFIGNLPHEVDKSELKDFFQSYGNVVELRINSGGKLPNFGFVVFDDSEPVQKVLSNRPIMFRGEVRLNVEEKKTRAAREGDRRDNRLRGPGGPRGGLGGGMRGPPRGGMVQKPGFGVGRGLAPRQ
Shared flanks, not repeated: GGGAGUUCUACAGUCCGACGAUC … UGGAAUUCUCGGGUGUCAAGG
Strand | log2 enrichment
CCUGUGCUACACAUCGUAUGUACCGAAUCAAACCCCCAAACCCCCCCAAACCCCCCCAAAAAAGUAUUAUGUUACGCCGUUCGGAUCUGC | -0.0905
ACCAUGCAGGUGGGCAUCUUUGGGAAGUGGGGCAAGGGGGGGAUAGGGAGGGGGGUAACACUUUGGGAACAGGUGGUCCCAGGUCGUUUU | 0.981
UCCUGUGCUACACAUCGUAUGUACCGAAUCGGGGUUUUUUUGGGGAAAAAGGGGUGGGGAAAGUAUUAUGUUACGCCGUUCGGAUCUGCA | 0.407
UGGCCCUGUUGGCAUGCGGGGAGGAAGAGGUGGCCUCAUGGAUCGUGGUGGUCCCGGUGGAAUGUUCAGAGGUGGCCGUGGUGGAGACAG | 0.901
CACAGACAACACGCACCCACACAGACACAGAGGGAAGGGGCUGGGAUGGGGACAGGGUGCACAGCAGGGCGGGGUAGGACCCCAGCCCCU | -0.0981
ACCAUGCAGGUGGGCAUCUUUGGGAAGUGGGGCAAGGGGGGGAUAGGGAGGGGGGUAACACUUUGGGAACAGGUAGUCCCAGGUCGUUUC | 1.05
AAGUCCUGUGCUACACAUCGUAUGUACCGAAUCGGCCCCGGGCCCCGGGGCCCCGGAAAGUAUUAUGUUACGCCGUUCGGAUCUGCACUU | -0.602
CAAGUCCUGUGCUACACAUCGUAUGUACCGAAUCGGGAAAGGGAAAAAGGGAGGGAAAGUAUUAUGUUACGCCGUUCGGAUCUGCACUUC | 0.945
UCAAGUCCUGUGCUACACAUCGUAUGUACCGAAUCGGUGGUUUUUUUGGAAAGGAAAGUAUUAUGUUACGCCGUUCGGAUCUGCACUUCC | -0.178
CUGUGCUACACAUCGUAUGUACCGAAUCGGGGUUUGGGGUUUUUUUGGGGUUUUUUUGGGGAAAGUAUUAUGUUACGCCGUUCGGAUCUG | 1.14
UGGGAGGUGGAUUUUGUUUAUUUUUUUAGCUCAUUUCCAGGGGUGGGAAUUUUUUUUUAAUAUGUGUCAUGAAGAAAGUUGUUUUUGAAA | 0.629
ACCAUGCAGGUGGGCAUCUUUGGGAAGUGGGGCAAGGGGGGGAUAGGGAGGGGGGUAACAAAAUGGGAACAGGUGGUCCCAGGUCGUUUC | -0.448
UCAAGUCCUGUGCUACACAUCGUAUGUACCGAAUCGGGCCGGGGCCGGCCGGGGAAAGUAUUAUGUUACGCCGUUCGGAUCUGCACUUCC | -0.504
AGUCCUGUGCUACACAUCGUAUGUACCGAAUCGGGUUUUUGGGUUUUUGGGAAAGGGAAAGUAUUAUGUUACGCCGUUCGGAUCUGCACU | 0.393

Study 2 — method: protein-binding microarray; molecule type: double-stranded DNA, one strand shown; matrix: in vitro; concentration: 250 nM; notes: 60-bp whole probe; together with: salmon DNA 0.4 mg/ml; relative to: random background probes; reading: higher = stronger binding; shared flanks, not repeated: GCCTAGCAC … GTCTTGATTCGCTTGACGCTGCTG
Target: Interferon regulatory factor 5, full length, phosphomimetic (IRF5, Homo sapiens, UniProt Q13568-2, residues 1-514, K96S/S451D/S453D/S456D/S462D)
Strand | log fluorescence [z-score]
TCAATTGTGGTTTTCATACTGTGCTAG | 1.1
TTAGGTTTCGGTTGCGGTTAGTGCTAG | 10.6
CTGCCCTGGTTCCCCTGCCTGTGCTAG | -0.498
CTTTCTTTGCTTCACCCTGGGTGCTAG | 1.15
GACGGTTTCGACTTTCCGGACGTGCTA | 6.19
GACGGACCGGGTCTCGGGACGTGCTAG | -0.538
TTAGGTTTCGGTATCGATTAGTGCTAG | 11
TGGGATTTTTAGTTAGAAAAGTGCTAG | 0.11
TCACTCCTATCTTATGATACTGTGCTA | 0.782
TTAGATCTCAGACTGGATTTGTGCTAG | -0.127
TTAGGTTTCGGCCTGGGTTAGTGCTAG | 7.7
GTAGGTTTCGACTTTCGGTTAGTGCTA | 10.4
CGAGATCTCCGAGATGCCTTCGTGCTA | -0.0552
TTAGGTATCGGTATAGGTTAGTGCTAG | 7.5
GACGATCTCAGTTTCGTGACGTGCTAG | 2.13
AACAATATATATATTATATAGTGCTAG | 1.04
GACGGTTTCGGGACTGGGTACGTGCTA | 4.57
TCACATTGAGATTTCCAACTGTGCTAG | 0.392
GACGGACTGCTTCTACTGACGTGCTAG | -0.346

Study 3 — method: RNA Bind-n-Seq; molecule type: RNA; matrix: in vitro; concentration: 365 nM; relative to: no-protein control; reading: higher = stronger binding
Target: RNA binding protein fox-1 homolog 2, RRM domain, GST-SBP tag (RBFOX2, Homo sapiens, UniProt O43251-10, residues 100-194)
Notes: natural RNA segment, single round, ends assumed
Shared flanks, not repeated: GGGAGUUCUACAGUCCGACGAUC … UGGAAUUCUCGGGUGCCAA
Target sequence (chain): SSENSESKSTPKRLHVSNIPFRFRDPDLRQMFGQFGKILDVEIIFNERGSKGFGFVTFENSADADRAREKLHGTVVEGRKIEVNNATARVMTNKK
Strand | RBNS enrichment (R)
CUCCUCACUAGCUCCAAUGUUCCCAUGUUUCCAUUUGUGUGUCUUAUACGUGUAUGUGUGCCCUCUCCUUACAUACACACCCUGGAAUAGAGUUCUCACACCGUUCAAUU | 1.04
CAUCUUUAUAUUUUUAAAAUUGUAUUGCUGCUCAAGAAUGGUACCCUUUUGUCAAAAAGGUAGAUAUUCAUAAUUGUACAUUCAGCAUUGUAAAUACCAUAUGAAAUCCU | 0.417
UCUGAUAGUUGGGAUAAAGGGCUCAGCUCAGUUUACCUGUUACAAUUCAUAGUAUAUUGUUGUUUGUGACAUGAACUCCAAGAUACACAAAGGAGCCCAGGGAACUAUGU | 1.29
UUUAUAGUUGGCACUUGAUUGCAGUUCUGUGAGGCUUGAGCAUUCAUACACCUCACCUGCCUUGGCAAGCCUAUUUUAGUGAUAUGGCAGCACGGAUAUAACACUAUGCA | 14.2
CUGAUUGGGUCAACAGUUGAUUAGUGGAAGACGGAGAGCAGAAGAAUUUUGUCAUAUCUAUUAGGCCAGAAAGUAAUCACUGAAGAAGCAGAUGGUAGGAGCUGGAGCAA | 0.362
UAUAAAAAUAUUUAUCUUAGAAUUUGAGAUGUUCAUAGCAUGUUUUAUUACAUUGAAGAAACUAAAACAUAAAUGAAAAGAAACACUAGGUUCCUGCACUUUUUGGUAAC | 44
UCUCCUUCACAGUGAGGAAAAAGAGAAGGGUAGAAACUUUAGGGAGCCGGAUUUGUGUAUCAAUUCCUCCGCUGACAGUCAGUUUCUAGAUGGAGACAGCCUGCUUAAAG | 0.431
CCUGUUGCAUUAAGACUUGAAAGACUUGUAGAUGUGUGAUGUUCAGGCACAGGAUGCUGAAAGCUAUGUUACUAUUCUUAGUUUGUAAAUUGUCCUUUUGAUACCAUCAU | 0.79
GAGCACCCCGAGUUGGCAGUCCUCGCAGACUCGGUUGACCUUCAGGAGUCCACAGGGAUAGCUUCCGACAGCUCCAGCGACUCUUCCAGCUCCUCCAGCUCCAGUUCGUC | 0.279
GUUCUAUAUAAAAAGAUGUUUCUUUGGUAUUCUUCAGCCUGUGUUUUCAAGUUUUACAGAAGCAGAGCUUUUCCCUAAGUUCCUCUUCGGUUCACUGUAGAUCCAGUUCU | 1.42
CACACCAGAGGUUGUAGACCUAUAUCUGGUAUCCAGAACCUGACAGGGAAACAGUUCUUGGUCCCCCUUUUUUGGGGUCAGCAUUUUAAAAAUGCAAAGCCUAUAUGUUG | 0.389
GUGGGCUGCUAACAGCAAGAGGGAGCACUUGUCUUCAUCACAAGCAAGAUGAUGAGCACAGAGUGAGACCUUUAACAGGAUGGCGGAGGGAAAGGUGUUUGCUGGAGUGA | 2.59

Study 4 — method: universal PBM; molecule type: double-stranded DNA, one strand shown; matrix: in vitro; concentration: not given; reading: higher = stronger binding
Target: Sal-like protein 4, full length isoform B (SALL4, Homo sapiens, UniProt Q9UJQ4-2, residues 1-616)
Notes: 8-mer, flanks averaged, mean of replicates
Target sequence (chain): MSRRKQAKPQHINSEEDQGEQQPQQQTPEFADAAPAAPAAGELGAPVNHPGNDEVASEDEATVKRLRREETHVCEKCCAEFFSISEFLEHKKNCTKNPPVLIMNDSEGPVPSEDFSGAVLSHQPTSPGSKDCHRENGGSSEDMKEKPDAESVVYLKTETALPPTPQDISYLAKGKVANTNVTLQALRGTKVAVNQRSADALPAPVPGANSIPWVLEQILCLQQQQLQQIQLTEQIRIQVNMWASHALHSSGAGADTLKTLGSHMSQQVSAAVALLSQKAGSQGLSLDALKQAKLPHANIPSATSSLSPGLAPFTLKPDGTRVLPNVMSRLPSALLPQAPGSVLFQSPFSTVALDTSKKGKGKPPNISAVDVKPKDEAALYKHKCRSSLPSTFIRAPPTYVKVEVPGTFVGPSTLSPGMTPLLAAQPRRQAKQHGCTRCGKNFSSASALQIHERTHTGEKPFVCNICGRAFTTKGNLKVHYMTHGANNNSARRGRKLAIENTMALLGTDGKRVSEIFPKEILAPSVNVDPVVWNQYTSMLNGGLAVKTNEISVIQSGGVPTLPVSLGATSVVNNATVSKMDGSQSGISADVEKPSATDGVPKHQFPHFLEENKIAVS
Strand | E-score
GTCATGAC | 0.0729
CTTTCAGC | -0.0795
ACGTGTAG | -0.0236
CTTCCAAA | 0.178
ACTACAGC | -0.085
CACCTTCG | -0.109
CAGGCTCG | -0.236
ATGGCCAT | 0.105
ACATGGGA | -0.0686
TGACGAAA | 0.125
GACCATAC | -0.0539
ATTTTCGA | 0.223
GTTCTGCA | -0.0395
GCGTTAAA | -0.081
AGCGACCC | -0.285
ATGGTAAA | 0.203
CCTCCAGG | -0.254
CCGCCGAC | -0.314
CAAGTGGC | 0.0154
CTCCCATA | 0.0785
CGCTCACA | -0.171
CCTAACAA | 0.169
GGAGGCGA | -0.285
ACTCGCAG | -0.124
GTAGGGAA | 0.0109

Excerpt of the above (study 3):
Strand | RBNS enrichment (R)
UAUAAAAAUAUUUAUCUUAGAAUUUGAGAUGUUCAUAGCAUGUUUUAUUACAUUGAAGAAACUAAAACAUAAAUGAAAAGAAACACUAGGUUCCUGCACUUUUUGGUAAC | 44
UUUAUAGUUGGCACUUGAUUGCAGUUCUGUGAGGCUUGAGCAUUCAUACACCUCACCUGCCUUGGCAAGCCUAUUUUAGUGAUAUGGCAGCACGGAUAUAACACUAUGCA | 14.2
CCUGUUGCAUUAAGACUUGAAAGACUUGUAGAUGUGUGAUGUUCAGGCACAGGAUGCUGAAAGCUAUGUUACUAUUCUUAGUUUGUAAAUUGUCCUUUUGAUACCAUCAU | 0.79
CACACCAGAGGUUGUAGACCUAUAUCUGGUAUCCAGAACCUGACAGGGAAACAGUUCUUGGUCCCCCUUUUUUGGGGUCAGCAUUUUAAAAAUGCAAAGCCUAUAUGUUG | 0.389
GUUCUAUAUAAAAAGAUGUUUCUUUGGUAUUCUUCAGCCUGUGUUUUCAAGUUUUACAGAAGCAGAGCUUUUCCCUAAGUUCCUCUUCGGUUCACUGUAGAUCCAGUUCU | 1.42
CUGAUUGGGUCAACAGUUGAUUAGUGGAAGACGGAGAGCAGAAGAAUUUUGUCAUAUCUAUUAGGCCAGAAAGUAAUCACUGAAGAAGCAGAUGGUAGGAGCUGGAGCAA | 0.362
